Published values collected from several papers.
Numbered parts are unrelated; each lists some results of a single study. Positions count from the first letter of the parent shown.

Sample 1
Target: CCNE2, cyclin fold, Cln2 fusion (human)
Technique: yeast growth competition, sequencing
Medium: yeast
Notes: strong parent motif
Baseline: not given
Reading: higher = stronger binding
Starting sequence: SCAPER docking peptide (human); SNARRSLNFGGST
| Change | normalised enrichment score |
| --- | --- |
| SNARRSLNFGYST [G11Y] | 1.23 |
| SNARRNLNFGGST [S6N] | 1.81 |
| SNARRSLNFQGST [G10Q] | 0.622 |
| SNARRSLNFGGNT [S12N] | 1.88 |
| SAARRSLNFGGST [N2A] | 1.53 |

Sample 2
Target: Phosphate system positive regulatory protein PHO4, full length, GST-tagged (PHO4, Saccharomyces cerevisiae, UniProt P07270, residues 1-312)
Technique: competition protein-binding microarray
Form: double-stranded DNA, one strand shown
Medium: in vitro
Concentration: 2 µM
Notes: whole 60-bp probe, lowest competitor level
Added: Cbf1 competitor, 0.05 µM
Reading: higher = stronger binding
Shared flanks, not repeated: … GTCTTGATTCGCTTGACGCTGCTG
Residues (chain): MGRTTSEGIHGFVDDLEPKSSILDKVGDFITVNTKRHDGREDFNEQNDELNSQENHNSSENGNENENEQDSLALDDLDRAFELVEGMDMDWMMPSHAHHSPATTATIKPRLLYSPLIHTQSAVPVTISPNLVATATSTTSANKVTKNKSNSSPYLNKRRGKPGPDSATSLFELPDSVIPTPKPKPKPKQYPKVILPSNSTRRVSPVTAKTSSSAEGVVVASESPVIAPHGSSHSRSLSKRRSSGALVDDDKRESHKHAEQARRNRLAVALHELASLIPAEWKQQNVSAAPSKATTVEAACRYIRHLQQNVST
| Oligonucleotide | fluorescence intensity |
| --- | --- |
| CGGGAACGCAAATGCATCGTGGTGAAATGATAAATC | 9040 a.u. |
| TTCTTCCAACACCGACACGTTGTTCTCGCTCTCTTC | 11500 a.u. |
| TATTCAAGATCCTGCAACGTGCCAGGGACTCTCAAT | 15200 a.u. |
| CAGAATCGCATACTCCACGTGAGAACAAGAAAAAAT | 14500 a.u. |
| CGTCCTAGTGATTGTATTGTGGGTGCCATGAGGAAG | 7110 a.u. |
| TGCGCAACAACTTGTATGGTGGGTGTATGTCTAGAA | 4880 a.u. |

Sample 3
Target: ABI1, truncated, D143A, DHFR fusion (Arabidopsis thaliana)
Technique: DHFR PCA, deep sequencing
Medium: yeast
Notes: methotrexate growth selection, single substitutions
Added: (+)-ABA 0 µM
Baseline: wild-type fitted maximum
Reading: higher = stronger binding
Starting sequence: PYL1, truncated, DHFR fusion (Arabidopsis thaliana); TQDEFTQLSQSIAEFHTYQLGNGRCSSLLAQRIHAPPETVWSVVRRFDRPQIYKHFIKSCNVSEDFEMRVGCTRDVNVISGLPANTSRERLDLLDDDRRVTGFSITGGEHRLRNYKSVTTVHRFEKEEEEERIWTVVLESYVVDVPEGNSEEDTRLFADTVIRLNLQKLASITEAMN; partner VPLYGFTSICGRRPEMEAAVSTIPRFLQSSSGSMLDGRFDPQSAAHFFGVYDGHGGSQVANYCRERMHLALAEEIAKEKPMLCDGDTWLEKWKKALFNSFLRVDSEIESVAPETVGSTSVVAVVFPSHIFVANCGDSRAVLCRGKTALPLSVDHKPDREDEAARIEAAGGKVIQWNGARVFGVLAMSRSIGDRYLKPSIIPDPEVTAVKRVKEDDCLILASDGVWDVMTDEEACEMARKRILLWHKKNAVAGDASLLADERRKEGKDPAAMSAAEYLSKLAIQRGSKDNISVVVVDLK
| Change | relative binding score [%] |
| --- | --- |
| T119S | -4.49 |
| R46G | 0.0748 |
| G23L | 2.24 |
| G107R | 0.843 |
| S140R | 7.92 |
| S27Q | -1.18 |

Further values, each from its own experiment
| Molecule | target | test | system | conditions | how to read | measurement | result |
| --- | --- | --- | --- | --- | --- | --- | --- |
| PhoQ, residues 284 288 289 292 302 303 NLAAMI | PhoP, residues 12 14 15 18 19 NQGLL (Escherichia coli, UniProt P23836) | Sort-seq, refers to: YFP reporter | E. coli | PhoQ-PhoP variant library, added: 10 µM Mg2+ | baseline: high Mg2+ state, higher = stronger signaling | fold induction | 4.85 |

Repeated from above (sample 3):
| Change | relative binding score [%] |
| --- | --- |
| R46G | 0.0748 |
| G23L | 2.24 |
